Measurements from different studies.
Lines come from different studies, so protocols differ. ± gives the spread as reported.

`O=c1[nH]c(=O)n(C2OC(CO)C(O)C2O)cc1-n1nnc2c1CCC1C(CO)C1CC2` (mixture of isomers): “fluorescence lifetime τ2” 1.3 ns (frequency-domain fluorometry; methanol).
`Cc1ccc(-c2ccc(-c3cc4sccc4o3)cn2)nc1` gave a fluorescence lifetime of 0.85 ns (TCSPC; hexanes).
`CC1=CC(C)=[N+]2C1=C(CCCC(=O)NCCCC[C@H](NC(=O)N[C@@H](CCC(=O)O)C(=O)O)C(=O)O)c1c(C)cc(C)n1[B-]2(F)F` has a fluorescence lifetime of 5.9 ± 0.1 ns (acetonitrile/water).
For `NCCC(=O)N1Cc2ccccc2-c2c(nnn2-c2nc(N)c3ncn(C4OC(CO)C(O)C4O)c3n2)-c2ccccc21` (mixture of isomers), “fluorescence lifetime τ2” read 2 ns (frequency-domain fluorometry; methanol).
For `COc1cc(OC)cc(C2=C3C(C)=C(I)C(/C=C/c4c[nH]c5ccccc45)=[N+]3[B-](F)(F)n3c(/C=C/c4c[nH]c5ccccc45)c(I)c(C)c32)c1`, “fluorescence quantum yield” read 0.12 (THF; baseline: methylene blue).
Under “fluorescence lifetime τ2”, `Nc1ncnc2c1nc(-n1nnc3c1CCC1C(CO)C1CC3)n2C1OC(CO)C(O)C1O` (mixture of isomers) is recorded as 0.8 ns (frequency-domain fluorometry; methanol).
For `COCCOCCOCCOCCOCCOCCOCCOCCC(=O)NCCCc1cc2cc3nc(cc4[nH]c(cc5nc(c(OC)c1[nH]2)C(=O)C5(C)C)cc4CCc1ccc(C(=O)O)cc1)CC3(C)C`, “fluorescence quantum yield reduction” read 61% (water; concentration not given; baseline: DMF).
`COc1cc(OC)cc(C2=C3C(C)=C(I)C(C)=[N+]3[B-](F)(F)n3c(C)c(I)c(C)c32)c1`: “fluorescence quantum yield” 0.03 (DMSO).
`CC1=CC(C)=[N+]2C1=C(CCCC(=O)NCC1CCC(C(=O)NC(Cc3ccc4ccccc4c3)C(=O)NCCCCC(NC(=O)NC(CCC(=O)O)C(=O)O)C(=O)O)CC1)c1c(C)cc(C)n1[B-]2(F)F` (stereo not shown) gave a fluorescence lifetime of 6.1 ± 0.1 ns (acetonitrile/water).
`CCOC(=O)c1[nH]c(C)c(/C=C/C2=[N+]3C(=C(c4cc(OC)cc(OC)c4)c4c(C)c(I)c(/C=C/c5c(C)[nH]c(C(=O)OCC)c5C)n4[B-]3(F)F)C(C)=C2I)c1C` — result for “fluorescence quantum yield”: 0.07 (THF; baseline: methylene blue).
Under “fluorescence emission maximum”, `CN1CCC(C)(C)c2cc3c(-c4ccc(C(=O)N5CCCCC5)s4)c4ccc(=[N+](C)C)cc-4sc3cc21` is recorded as 626 nm (methanol; together with: excitation 532 nm).
`COc1cc(OC)cc(C2=C3C(C)=C(I)C(C)=[N+]3[B-](F)(F)n3c(/C=C/c4c[nH]c5ccc([N+](=O)[O-])cc45)c(I)c(C)c32)c1` — result for “fluorescence quantum yield”: 0.19 (DMSO; baseline: methylene blue).
For `Nc1nc(-n2nnc3c2CCC2C(CO)C2CC3)nc2c1ncn2C1OC(CO)C(O)C1O` (mixture of isomers), “fluorescence lifetime τ2” read 1 ns (frequency-domain fluorometry; methanol).

Repeated from above:
`CCOC(=O)c1[nH]c(C)c(/C=C/C2=[N+]3C(=C(c4cc(OC)cc(OC)c4)c4c(C)c(I)c(/C=C/c5c(C)[nH]c(C(=O)OCC)c5C)n4[B-]3(F)F)C(C)=C2I)c1C` — result for “fluorescence quantum yield”: 0.07 (THF; baseline: methylene blue).
